Measurements of several laboratories.
Protocols differ between the studies behind these lines. Numbers after ± are the reported error.

`CN[C@@](C)(C[18F])C(=O)O` has a tissue uptake of 0.3 ± 0.01 %ID/g (SCID mouse MDA-MB-468 xenograft, brain; 60 min, post injection).
`NC(=O)c1nc(F)c[nH]c1=O` gave a solubility of 360 µg/mL (UV-Vis spectrophotometry; supercritical CO2; 120 min, 328 K, 18 MPa, 724.13 kg/m^3).
`CSCC[C@@H]1NC(=O)[C@H](CC(=O)O)NC(=O)CNC(=O)[C@H](CCCNC(=N)N)NC(=O)[C@H](C)NC(=O)[C@H](CCC(=O)O)NC(=O)[C@H](CCCNC(=N)N)NC(=O)[C@@H]2CSSC[C@@H]3NC(=O)[C@H](CO)NC(=O)[C@H]([C@@H](C)O)NC(=O)[C@@H]4CCCN4C(=O)[C@H](C)NC(=O)[C@H](Cc4c[nH]c5ccccc45)NC(=O)[C@H](CC(=O)O)NC(=O)CNC(=O)[C@H](CCCNC(=N)N)NC(=O)CNC(=O)[C@H](CCC(N)=O)NC(=O)[C@@H]4CCCN4C(=O)[C@@H](NC(=O)CNC(=O)C(C)F)CSSC[C@H](NC(=O)CNC(=O)[C@H](C)NC(=O)[C@H](CC(C)C)NC(=O)[C@H](CSSC[C@@H](C(=O)NCC(N)=O)NC(=O)[C@H]([C@@H](C)O)NC(=O)[C@H](CCCNC(=N)N)NC(=O)[C@@H]4CCCN4C1=O)NC(=O)[C@H](CC(=O)O)NC(=O)[C@H](CO)NC(=O)[C@H](CC(=O)O)NC(=O)[C@H](CCC(N)=O)NC(=O)[C@H](CO)NC3=O)C(=O)N[C@@H](C(C)C)C(=O)N2` (stereo partly drawn) [fluorine-18 labelled] gave a tissue uptake of 0.35 ± 0.1 %ID/g (nude mice U-87 MG xenograft, muscle; intravenous, 0.5 h).
`CS(=O)(=O)CCCn1c(Cn2c(=O)n(CC(F)(F)F)c3ccncc32)cc2cc(Cl)ccc21` — result for “serious adverse events”: 8% (RSV-infected infants; dose not given, mid dose cohorts).
`CCCCCOc1ccc(-c2cc(-c3ccc(C(=O)N[C@H]4C[C@@H](O)[C@@H](O)NC(=O)[C@@H]5[C@@H](O)[C@@H](C)CN5C(=O)[C@H]([C@H](O)CC(N)=O)NC(=O)[C@H]([C@H](O)[C@@H](O)c5ccc(O)c(OS(=O)(=O)O)c5)NC(=O)[C@@H]5C[C@@H](O)CN5C(=O)[C@H]([C@@H](C)O)NC4=O)cc3)no2)cc1` has an AUC(0-tau) of 249 µg·h/mL (human paediatric patients 6 to sample C years, plasma; intravenous, 3 mg/kg once daily, day 7, median).
For `Cc1cc(C)c(/C=C2\C(=O)Nc3ccccc32)[nH]1`, the terminal half-life was 59.4 ± 22.8 min (human patients without enzyme-inducing anticonvulsants, plasma; intravenous, 145 mg/m^2, week 6).
`CNC(=O)c1ccc(-c2cnn3ccc(C(=O)N(C)c4ccc(Cl)c(C(=O)OC)c4)cc23)cc1` has a Tmax of 75 min (beagle dogs, both sexes, plasma; oral, 15 mg/kg/day, day 1).
For `CCCCCOc1ccc(-c2cc(-c3ccc(C(=O)N[C@H]4C[C@@H](O)[C@@H](O)NC(=O)[C@@H]5[C@@H](O)[C@@H](C)CN5C(=O)[C@H]([C@H](O)CC(N)=O)NC(=O)[C@H]([C@H](O)[C@@H](O)c5ccc(O)c(OS(=O)(=O)O)c5)NC(=O)[C@@H]5C[C@@H](O)CN5C(=O)[C@H]([C@@H](C)O)NC4=O)cc3)no2)cc1`, the clearance was 0.333 mL/min/kg (infants on ECMO; intravenous, multiple doses median).
With `CC[C@H](C)[C@H](NC(=O)CN)C(=O)NCC(=O)N[C@@H](C)C(=O)N[C@H](C(=O)N[C@@H](CC(C)C)C(=O)N[C@@H](CCCCN)C(=O)N[C@H](C(=O)N[C@@H](CC(C)C)C(=O)N[C@H](C(=O)N[C@H](C(=O)NCC(=O)N[C@@H](CC(C)C)C(=O)N1CCC[C@H]1C(=O)N[C@@H](C)C(=O)N[C@@H](CC(C)C)C(=O)N[C@H](C(=O)N[C@@H](CO)C(=O)N[C@@H](Cc1c[nH]c2ccccc12)C(=O)N[C@H](C(=O)N[C@@H](CCCCN)C(=O)N[C@@H](CCCNC(=N)N)C(=O)N[C@@H](CCCCN)C(=O)N[C@@H](CCCNC(=N)N)C(=O)N[C@@H](CCC(N)=O)C(=O)N[C@@H](CCC(N)=O)C(N)=O)[C@@H](C)CC)[C@@H](C)CC)[C@@H](C)O)[C@@H](C)O)C(C)C)C(C)C` the hemolysis was 86 ± 17% (sheep erythrocytes; 15 µM, 1 h, pH 7.4; reference: water lysis).
The MRT of `CC[C@H](C)[C@H](NC(=O)[C@@H](N)CCCNC(=N)N)C(=O)N[C@H](C(=O)N1CCC[C@H]1C(=O)N[C@@H](C)C(N)=O)C(C)C` is reported as 4.8 min (human, plasma; intravenous, 2 mg/kg, single dose, healthy volunteers).
With `CC1N=C(c2ccccc2F)c2cc(NCc3ccccc3)ccc2NC1=O` (stereo not drawn) the solubility was 1.35 µM (shake flask; PBS; 24 h, pH 7.4).
`CCCCCCCC[N+](C)(C)Cc1ccccc1` gave an intrinsic clearance of 1.54 mL/h/mg protein (substrate depletion; human liver microsomes; 0.5 µM, 0 to 3 h, 37 °C, with: NADPH).

For quick reference, copied from above:
With `CC1N=C(c2ccccc2F)c2cc(NCc3ccccc3)ccc2NC1=O` (stereo not drawn) the solubility was 1.35 µM (shake flask; PBS; 24 h, pH 7.4).
